Published values of several laboratories.
Parts stem from different laboratories: compare values within a part only. Several values in a cell are separate wells, animals, samples, runs or records.
UniProt P47898, sequence (whole entry, looked up): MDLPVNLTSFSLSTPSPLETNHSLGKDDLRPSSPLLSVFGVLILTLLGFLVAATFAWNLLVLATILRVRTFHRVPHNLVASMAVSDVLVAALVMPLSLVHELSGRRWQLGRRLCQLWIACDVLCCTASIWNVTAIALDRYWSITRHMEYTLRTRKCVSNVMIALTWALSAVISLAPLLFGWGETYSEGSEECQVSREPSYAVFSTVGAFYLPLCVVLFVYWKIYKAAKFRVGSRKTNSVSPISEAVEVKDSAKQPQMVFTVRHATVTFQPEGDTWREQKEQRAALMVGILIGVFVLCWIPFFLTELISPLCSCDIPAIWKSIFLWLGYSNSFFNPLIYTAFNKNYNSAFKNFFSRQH
UniProt P11229, sequence (whole entry, looked up): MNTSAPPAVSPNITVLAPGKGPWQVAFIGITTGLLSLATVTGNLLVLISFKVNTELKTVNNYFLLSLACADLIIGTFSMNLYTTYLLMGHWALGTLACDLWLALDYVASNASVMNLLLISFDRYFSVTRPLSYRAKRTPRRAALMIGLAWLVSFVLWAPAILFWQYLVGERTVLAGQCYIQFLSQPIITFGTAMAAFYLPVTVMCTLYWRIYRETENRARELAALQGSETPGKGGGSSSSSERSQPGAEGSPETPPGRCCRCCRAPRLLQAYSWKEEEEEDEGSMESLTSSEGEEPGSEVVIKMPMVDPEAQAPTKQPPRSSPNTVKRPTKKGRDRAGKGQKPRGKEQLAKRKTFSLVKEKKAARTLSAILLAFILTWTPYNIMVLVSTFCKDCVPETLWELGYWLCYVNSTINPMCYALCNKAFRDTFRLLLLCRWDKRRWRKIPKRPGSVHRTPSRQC
UniProt Q9HCP0, sequence (whole entry, looked up): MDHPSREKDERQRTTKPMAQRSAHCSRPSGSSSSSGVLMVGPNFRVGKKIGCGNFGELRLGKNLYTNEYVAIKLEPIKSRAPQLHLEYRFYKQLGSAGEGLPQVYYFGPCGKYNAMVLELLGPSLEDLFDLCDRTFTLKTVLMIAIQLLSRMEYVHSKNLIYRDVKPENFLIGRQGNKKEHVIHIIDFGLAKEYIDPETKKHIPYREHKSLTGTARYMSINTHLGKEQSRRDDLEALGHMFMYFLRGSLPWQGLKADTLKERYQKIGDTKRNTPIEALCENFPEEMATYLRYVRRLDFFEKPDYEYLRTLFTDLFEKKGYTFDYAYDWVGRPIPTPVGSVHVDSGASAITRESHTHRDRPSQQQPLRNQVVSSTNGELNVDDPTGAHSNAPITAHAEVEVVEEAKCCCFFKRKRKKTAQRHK
UniProt P21709, sequence (whole entry, looked up): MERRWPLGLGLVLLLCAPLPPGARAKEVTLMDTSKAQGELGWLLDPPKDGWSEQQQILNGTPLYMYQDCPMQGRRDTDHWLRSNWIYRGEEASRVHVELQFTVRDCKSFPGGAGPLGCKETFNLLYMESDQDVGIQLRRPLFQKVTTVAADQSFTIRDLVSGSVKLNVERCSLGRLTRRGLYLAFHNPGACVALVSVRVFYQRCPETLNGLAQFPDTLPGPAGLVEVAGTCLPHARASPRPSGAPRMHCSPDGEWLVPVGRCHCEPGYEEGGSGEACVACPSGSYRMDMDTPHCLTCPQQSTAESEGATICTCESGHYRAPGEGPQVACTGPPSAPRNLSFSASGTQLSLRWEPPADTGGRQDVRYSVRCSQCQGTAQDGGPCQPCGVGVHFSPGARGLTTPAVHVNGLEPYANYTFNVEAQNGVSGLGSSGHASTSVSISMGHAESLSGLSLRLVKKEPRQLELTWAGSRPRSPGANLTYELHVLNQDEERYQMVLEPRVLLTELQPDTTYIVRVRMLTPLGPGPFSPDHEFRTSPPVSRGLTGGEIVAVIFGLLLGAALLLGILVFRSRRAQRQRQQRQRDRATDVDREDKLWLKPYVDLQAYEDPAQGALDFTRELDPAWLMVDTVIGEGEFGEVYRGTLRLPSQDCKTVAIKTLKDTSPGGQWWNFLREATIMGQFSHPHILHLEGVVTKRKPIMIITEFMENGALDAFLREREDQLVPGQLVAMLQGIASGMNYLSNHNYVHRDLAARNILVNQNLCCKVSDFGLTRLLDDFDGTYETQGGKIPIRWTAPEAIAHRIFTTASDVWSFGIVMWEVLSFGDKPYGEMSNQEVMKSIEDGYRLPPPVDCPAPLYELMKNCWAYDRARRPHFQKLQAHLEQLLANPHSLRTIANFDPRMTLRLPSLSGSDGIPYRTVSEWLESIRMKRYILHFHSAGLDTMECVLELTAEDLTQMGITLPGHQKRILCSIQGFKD
UniProt Q8IW41, sequence (whole entry, looked up): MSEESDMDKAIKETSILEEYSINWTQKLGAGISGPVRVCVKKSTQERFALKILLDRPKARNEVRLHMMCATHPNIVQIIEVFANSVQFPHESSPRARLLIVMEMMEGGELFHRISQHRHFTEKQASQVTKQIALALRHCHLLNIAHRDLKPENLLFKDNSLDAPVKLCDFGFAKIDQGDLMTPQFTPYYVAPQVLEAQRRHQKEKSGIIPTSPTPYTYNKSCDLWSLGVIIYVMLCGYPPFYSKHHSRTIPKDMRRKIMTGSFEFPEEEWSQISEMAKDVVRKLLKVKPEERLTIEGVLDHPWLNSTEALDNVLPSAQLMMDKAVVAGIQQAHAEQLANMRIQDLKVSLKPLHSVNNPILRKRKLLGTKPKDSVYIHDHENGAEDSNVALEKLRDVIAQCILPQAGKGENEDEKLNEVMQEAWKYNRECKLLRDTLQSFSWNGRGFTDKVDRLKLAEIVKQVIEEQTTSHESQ
UniProt Q9Y6E0, sequence (whole entry, looked up): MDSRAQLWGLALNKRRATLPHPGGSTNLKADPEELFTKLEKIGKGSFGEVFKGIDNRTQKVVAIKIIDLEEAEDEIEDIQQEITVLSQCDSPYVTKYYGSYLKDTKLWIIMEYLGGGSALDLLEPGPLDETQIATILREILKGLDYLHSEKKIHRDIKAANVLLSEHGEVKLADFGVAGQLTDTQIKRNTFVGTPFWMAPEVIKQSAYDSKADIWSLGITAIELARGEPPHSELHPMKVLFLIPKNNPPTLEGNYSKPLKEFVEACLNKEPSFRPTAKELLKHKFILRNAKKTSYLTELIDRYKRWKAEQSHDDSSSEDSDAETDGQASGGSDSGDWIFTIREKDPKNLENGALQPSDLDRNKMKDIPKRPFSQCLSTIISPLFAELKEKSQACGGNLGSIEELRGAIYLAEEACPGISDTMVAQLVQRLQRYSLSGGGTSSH
UniProt P29597, sequence (whole entry, looked up): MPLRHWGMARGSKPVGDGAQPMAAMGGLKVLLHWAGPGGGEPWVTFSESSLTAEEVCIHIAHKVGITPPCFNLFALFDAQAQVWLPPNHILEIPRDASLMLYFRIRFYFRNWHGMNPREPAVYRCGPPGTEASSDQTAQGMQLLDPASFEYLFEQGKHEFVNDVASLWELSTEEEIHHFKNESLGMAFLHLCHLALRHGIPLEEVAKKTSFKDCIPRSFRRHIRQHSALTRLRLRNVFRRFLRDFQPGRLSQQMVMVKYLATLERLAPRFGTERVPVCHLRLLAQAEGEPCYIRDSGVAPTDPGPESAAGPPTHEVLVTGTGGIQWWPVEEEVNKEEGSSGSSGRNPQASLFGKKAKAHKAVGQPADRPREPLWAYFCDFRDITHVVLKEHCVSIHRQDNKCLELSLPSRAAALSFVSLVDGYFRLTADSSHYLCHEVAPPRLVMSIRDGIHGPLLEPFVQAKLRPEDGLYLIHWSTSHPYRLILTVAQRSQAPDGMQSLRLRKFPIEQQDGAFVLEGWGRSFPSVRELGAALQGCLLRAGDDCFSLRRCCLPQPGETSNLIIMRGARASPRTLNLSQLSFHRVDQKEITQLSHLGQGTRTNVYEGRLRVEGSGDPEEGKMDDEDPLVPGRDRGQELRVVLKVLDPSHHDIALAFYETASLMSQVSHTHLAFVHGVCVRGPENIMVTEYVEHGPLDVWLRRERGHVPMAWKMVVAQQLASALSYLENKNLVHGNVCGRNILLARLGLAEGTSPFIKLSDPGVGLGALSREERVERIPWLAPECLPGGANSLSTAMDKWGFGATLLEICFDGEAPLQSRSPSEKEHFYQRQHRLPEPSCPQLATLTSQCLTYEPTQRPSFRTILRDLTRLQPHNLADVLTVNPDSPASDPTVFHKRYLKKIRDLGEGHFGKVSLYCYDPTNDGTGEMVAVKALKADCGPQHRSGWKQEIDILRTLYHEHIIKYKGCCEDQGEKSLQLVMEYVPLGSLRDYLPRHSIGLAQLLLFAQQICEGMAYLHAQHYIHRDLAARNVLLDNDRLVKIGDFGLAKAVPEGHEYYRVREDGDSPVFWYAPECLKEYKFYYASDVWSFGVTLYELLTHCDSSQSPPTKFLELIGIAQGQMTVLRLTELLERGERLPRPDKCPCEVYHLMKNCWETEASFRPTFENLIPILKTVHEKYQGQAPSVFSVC
UniProt Q9H093, sequence (whole entry, looked up): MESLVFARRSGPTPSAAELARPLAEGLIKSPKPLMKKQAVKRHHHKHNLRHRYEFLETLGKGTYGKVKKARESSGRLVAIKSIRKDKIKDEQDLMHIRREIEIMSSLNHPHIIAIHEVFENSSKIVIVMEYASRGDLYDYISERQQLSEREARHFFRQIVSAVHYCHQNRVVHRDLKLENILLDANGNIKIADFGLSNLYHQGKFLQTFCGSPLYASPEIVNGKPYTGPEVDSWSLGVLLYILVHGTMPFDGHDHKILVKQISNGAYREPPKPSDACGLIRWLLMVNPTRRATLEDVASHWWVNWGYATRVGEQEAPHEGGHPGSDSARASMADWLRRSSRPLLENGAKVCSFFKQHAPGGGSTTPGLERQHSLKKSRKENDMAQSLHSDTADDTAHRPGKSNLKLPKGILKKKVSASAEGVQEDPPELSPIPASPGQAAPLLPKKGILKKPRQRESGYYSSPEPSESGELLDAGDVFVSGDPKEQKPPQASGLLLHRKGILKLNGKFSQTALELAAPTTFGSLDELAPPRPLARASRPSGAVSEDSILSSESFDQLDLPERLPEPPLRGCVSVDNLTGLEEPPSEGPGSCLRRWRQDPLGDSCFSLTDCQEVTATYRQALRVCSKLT

Series 1
SMILES: CC(C)S(=O)(=O)c1cc2c(Nc3ccc4sc(C5CCCC5)nc4c3)ccnc2cc1OCCO
Technique: CCK-8
| cell line | concentration | together with | survival |
| --- | --- | --- | --- |
| L929 RIPK3-/- reexpressing RIPK3 K51A | 6.25 µM | zVAD | 73.6% and 78.4% and 84.2% and 77.1% and 85.6% |
| L929 RIPK3-/- reexpressing RIPK3 K51A/R69H | 25 µM | zVAD | 62.4% and 56% and 56.9% and 64.4% and 62.6% |
| L929 RIPK3-/- reexpressing RIPK3 K51A | 25 µM | – | 44.6% and 38.2% and 47.5% and 39.6% and 50.7% |
| L929 RIPK3-/- reexpressing RIPK3 K51A | 12.5 µM | – | 67.8% and 66.3% and 69.7% and 61% |
| L929 RIPK3-/- reexpressing RIPK3 K51A/R69H | 6.25 µM | zVAD | 85.1% and 96.2% and 93.6% and 94.9% and 93.9% |
| L929 RIPK3-/- reexpressing RIPK3 K51A | 50 µM | – | 13.7% and 13.1% and 11.3% and 12.7% and 10.9% |

Series 2
SMILES: O=C1NC(=O)c2c1c1c3ccccc3n3c1c1c2c2ccccc2n1[C@H]1CC[C@@H]3O1
Effect on: enzyme activity
Mode: inhibitor
Concentration: 0.5 µM
Baseline: control
| target | remaining activity [%] |
| --- | --- |
| PBK (Homo sapiens, UniProt Q96KB5) | 39.9 |
| NEK7 (Homo sapiens, UniProt Q8TDX7) | 99.1 |
| DAPK3 (Homo sapiens, UniProt O43293) | 24.6 |
| PRKD2 (Homo sapiens, UniProt Q9BZL6) | 2.02 |
| MAPKAPK5 (Homo sapiens, UniProt Q8IW41) | 80.4 |
| MKNK1 (Homo sapiens, UniProt Q9BUB5) | 48.6 |
| EPHA1 (Homo sapiens, UniProt P21709) | 90.1 |
| STK26 (Homo sapiens, UniProt Q9P289) | 20.5 |
| CAMK2G (Homo sapiens, UniProt Q13555) | 8.36 |
| STK24 (Homo sapiens, UniProt Q9Y6E0) | 14.3 |
| MYLK2 (Homo sapiens, UniProt Q9H1R3) | 7.76 |
| Protein kinase C beta type, isoform beta-II (PRKCB, Homo sapiens, UniProt P05771) | 6.42 |
| MAP3K11 (Homo sapiens, UniProt Q16584) | 1.37 |
| IRAK1 (Homo sapiens, UniProt P51617) | 37.5 |
| ERBB4 (Homo sapiens, UniProt Q15303) | 72.5 |
| NUAK2 (Homo sapiens, UniProt Q9H093) | 52 |
| CSNK1G1 (Homo sapiens, UniProt Q9HCP0) | 96.1 |
| EPHA8 (Homo sapiens, UniProt P29322) | 89.9 |
| MAPK8 (Homo sapiens, UniProt P45983) | 98.5 |
| TYK2 (Homo sapiens, UniProt P29597) | 4.32 |

Series 3
Cell line: mouse MPNST tumor cells
Technique: high-content immunofluorescence imaging
Measured: nuclear SOX9
Concentration: 10 µM
Time: 12 h
Setting: mean of 2 replicates
Baseline: DMSO control
Direction: higher = more nuclear SOX9
| Structure (SMILES) | nuclear SOX9 intensity |
| --- | --- |
| CCc1c(C(=O)OC)ncc2[nH]c3cc(OC)c(OC)cc3c12 | 135 % of DMSO |
| CC[C@@H](CO)NC(=O)[C@@H]1C=C2c3cccc4[nH]cc(c34)C[C@H]2N(C)C1 | 108 % of DMSO |
| C[C@]12CC[C@H](O)C[C@@H]1CC[C@@H]1[C@@H]2CC[C@]2(C)C(=O)CC[C@@H]12 | 108 % of DMSO |
| Cc1[nH]c2ccc(Cl)cc2c1C1=CCNCC1 | 160 % of DMSO |
| O=c1[nH]oc2c1CCNC2 | 95.2 % of DMSO and 94.2 % of DMSO |
| COc1cc(Br)c(OC)c2c1C(CN)C2 (stereo not shown) | 96.7 % of DMSO |
| O=C(Nc1ccccc1)C(=O)c1cn(Cc2ccccc2)c2ccccc12 | 171 % of DMSO |
| CC(C)CC(N)C1(c2ccc(Cl)cc2)CCC1 (stereo not shown) | 113 % of DMSO |
| C[C@@H]1CN([C@H]2CC[C@](C#N)(c3ccc(F)cc3)CC2)CC[C@]1(C(=O)O)c1ccccc1 | 102 % of DMSO |
| C[C@]12Cc3c[nH]nc3C[C@@H]1CC[C@@H]1[C@@H]2CC[C@@]2(C)[C@H]1CC[C@]2(C)O | 141 % of DMSO |

Further values, each from its own experiment
| Structure (SMILES) | target | effect on | technique | concentration | quantity | result |
| --- | --- | --- | --- | --- | --- | --- |
| O=C1CCc2cc(Nc3cc(OC4CCOCC4)c([N+](=O)[O-])cc3Cl)ccc2N1 | CDPK1 (Plasmodium falciparum, UniProt P62344) | cell-free assay | competition with immobilised ligand | 1 µM | remaining binding | 100% |
| N#CC1(c2ccccn2)CCN(Cc2cc(C(=O)O)c(=O)n3ccccc23)CC1 | HTR5A (Homo sapiens, UniProt P47898) | cell-free assay | – | 10 µM | inhibition | -20% |
| COc1cccc(CNC(=O)c2nc3scc(COCc4ccc(C(=O)O)cc4)c3c(=O)[nH]2)c1 | CHRM1 (Homo sapiens, UniProt P11229) | binding | radioligand binding | – | Ki | > 10 µM |
| Cn1cncc1[C@](O)(COc1ccc(C#N)cc1-c1ccc(OC(F)(F)F)cc1)c1ccc(C#N)cc1 | HRH1 (Homo sapiens, UniProt P35367) | binding | radioligand binding | – | Ki | > 10 µM |

Excerpt of the above (series 2):
| target | remaining activity [%] |
| --- | --- |
| NEK7 (Homo sapiens, UniProt Q8TDX7) | 99.1 |
| DAPK3 (Homo sapiens, UniProt O43293) | 24.6 |
| PRKD2 (Homo sapiens, UniProt Q9BZL6) | 2.02 |
| MAPKAPK5 (Homo sapiens, UniProt Q8IW41) | 80.4 |
| MKNK1 (Homo sapiens, UniProt Q9BUB5) | 48.6 |
| EPHA1 (Homo sapiens, UniProt P21709) | 90.1 |
| STK26 (Homo sapiens, UniProt Q9P289) | 20.5 |
